# Results gathered from unrelated publications.
# A part holds a random share of what one study measured. Substitutions count along the parent as printed.

# Series 1
# Target: CCNE2, cyclin fold, Cln2 fusion (human)
# Technique: yeast growth competition, sequencing
# Medium: yeast
# Notes: weak parent motif
# Baseline: not given
# Direction: higher = stronger binding
# Starting sequence: PKN2 docking peptide (human); DSTVTKLDFDLEP
Substitution,normalised enrichment score
L7A,-0.497
T3A,0.0988
D8A,-0.0254
V4A,-0.249
D1A,-0.21
P13A,-0.0506

# Series 2
# Target: Ras GTPase-activating protein-binding protein 1, C-terminal RGG region (G3BP1, Homo sapiens, UniProt Q13283)
# UniProt Q13283, sequence (whole entry, looked up): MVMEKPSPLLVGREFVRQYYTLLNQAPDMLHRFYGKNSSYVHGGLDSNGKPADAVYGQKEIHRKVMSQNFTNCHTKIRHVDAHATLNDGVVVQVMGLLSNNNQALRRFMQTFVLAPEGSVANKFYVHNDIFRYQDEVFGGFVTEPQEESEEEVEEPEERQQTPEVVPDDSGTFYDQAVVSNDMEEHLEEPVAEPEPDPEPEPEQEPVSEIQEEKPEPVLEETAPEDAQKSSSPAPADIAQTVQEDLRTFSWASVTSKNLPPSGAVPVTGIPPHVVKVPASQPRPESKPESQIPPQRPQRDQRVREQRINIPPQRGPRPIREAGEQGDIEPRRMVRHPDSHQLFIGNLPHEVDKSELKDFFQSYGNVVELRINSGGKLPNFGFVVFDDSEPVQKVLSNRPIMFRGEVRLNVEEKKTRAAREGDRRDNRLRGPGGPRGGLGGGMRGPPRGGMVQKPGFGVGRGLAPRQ
# Technique: RNA Bind-n-Seq
# Form: RNA
# Medium: in vitro
# Concentration: 1 µM
# Notes: whole 134-nt RNA, ends assumed
# With: 150 mM KCl
# Baseline: input library
# Direction: higher = stronger binding
Sequence,log2 enrichment
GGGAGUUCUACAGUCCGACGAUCGCAGGAAGUAAAAACAAAUGGAAAUGCUUCGGAUAGUGGCAGGGGUGGGGGUUGCUAAGGAAAGGGUGGGAUGGGAGUGAAAAAAGAGUUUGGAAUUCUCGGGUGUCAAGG,2.01
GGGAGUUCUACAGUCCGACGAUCUAACUUUAGAGGAGGAUCUGAUGGAUAUGGCAGUGGACGUGGAUUUGGGGAUGGCUAUAAUGGGUAUGGAGGAGGACCUGGAGGUGGAAAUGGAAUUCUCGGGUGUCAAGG,-0.549
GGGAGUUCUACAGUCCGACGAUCUAGGUAUUUCUGGGAAAAGCCAGCUUCUGUUUGCACUGGUCUUCACAACUCGUUACCUGGAUCUUUUUACUUCAUUUAUUUCAUUGUAUAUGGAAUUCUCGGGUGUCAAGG,-2.2
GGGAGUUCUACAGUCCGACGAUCCUCAAGUCCUGUGCUACACAUCGUAUGUACCGAAUCGGGCCGGCCGGGCCGGGGAAAGUAUUAUGUUACGCCGUUCGGAUCUGCACUUCCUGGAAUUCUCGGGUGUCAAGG,-1.08
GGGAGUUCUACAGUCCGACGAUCUUUCUAGGCAAGAGGAGGAACGACGUAGAAGAGAGGAAGAGAUGAUGAUUCGUCAACGUGAGAUGGAAGAACAAAUGAGGCGCCAAAGAGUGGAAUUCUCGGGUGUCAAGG,-0.933
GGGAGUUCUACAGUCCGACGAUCCAAGUCCUGUGCUACACAUCGUAUGUACCGAAUCGGGGUUUUGGUUUUGGUUUUGGAAAGUAUUAUGUUACGCCGUUCGGAUCUGCACUUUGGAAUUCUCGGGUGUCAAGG,-1.65
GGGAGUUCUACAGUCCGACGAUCAGUCCUGUGCUACACAUCGUAUGUACCGAAUCGGAAAAGGGAAAAGGGGAAAAGGGGAAAGUAUUAUGUUACGCCGUUCGGAUCUGCACUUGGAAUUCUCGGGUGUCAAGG,-0.711
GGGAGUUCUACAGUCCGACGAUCGUCCUGUGCUACACAUCGUAUGUACCGAAUCGGGGCCCCCGGGCCCCCGGGCCCCCGGGAAAGUAUUAUGUUACGCCGUUCGGAUCUGCAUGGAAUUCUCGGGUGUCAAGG,-1.4
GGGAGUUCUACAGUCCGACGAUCCAAGUCCUGUGCUACACAUCGUAUGUACCGAAUCGGUUUUGGUUUUGGGUUUUGGGAAAGUAUUAUGUUACGCCGUUCGGAUCUGCACUUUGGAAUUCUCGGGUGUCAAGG,-1.66
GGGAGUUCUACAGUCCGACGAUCUAACUUUAGAGGAGGAUCUGAUGGAUAUGGCAGUGCACGUGGAUUUGGGGAUGGCUAUAAUGGGUAUGGAGGAGGACCUGGAGGUGGCAAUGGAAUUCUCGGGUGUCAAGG,-1.2
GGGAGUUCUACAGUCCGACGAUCUCCUGUGCUACACAUCGUAUGUACCGAAUCAAACCCCCAAAUUUUUAAACCCCCCCAAAAAAGUAUUAUGUUACGCCGUUCGGAUCUGCAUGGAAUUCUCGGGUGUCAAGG,-0.715

# Series 3
# Target: ABI1, truncated, D143A, DHFR fusion (Arabidopsis thaliana)
# Technique: DHFR PCA, deep sequencing
# Medium: yeast
# Notes: methotrexate growth selection, single substitutions
# With: (+)-ABA 1.4 µM
# Baseline: wild-type fitted maximum
# Direction: higher = stronger binding
# Starting sequence: PYL1, truncated, DHFR fusion (Arabidopsis thaliana); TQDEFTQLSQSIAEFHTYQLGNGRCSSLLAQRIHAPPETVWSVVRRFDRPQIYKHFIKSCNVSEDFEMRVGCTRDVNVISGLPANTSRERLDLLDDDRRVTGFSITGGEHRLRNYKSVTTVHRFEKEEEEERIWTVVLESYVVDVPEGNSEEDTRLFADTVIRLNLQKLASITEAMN
Substitution,relative binding score [%]
F124P,3.39
V44L,39
V76P,3.6
E129G,79.5
V76M,6.6
K126S,84.4
P36T,51
F47P,-1.9
Q7I,41.4

# Single results of other studies
Substance,target,assay,test system,setting,scale,measurement,result
"PhoQ, residues 284 288 289 292 302 303 TGYLSA","PhoP, residues 12 14 15 18 19 VQGLL (Escherichia coli, UniProt P23836)","Sort-seq, measured: YFP reporter",E. coli,"PhoQ-PhoP variant library, with: 10 µM Mg2+","baseline: high Mg2+ state, higher = stronger signaling",fold induction,2.88

# Some of these lines once more (series 1):
Substitution,normalised enrichment score
D8A,-0.0254
V4A,-0.249
